Experimental data gathered from unrelated publications.
Several values in a cell are separate wells, animals, samples, runs or records. Numbers after ± are the reported error.

CN(C)C(CNC(=O)Nc1cc(C(F)(F)F)ccc1N1CCOCC1)c1ccncc1 (stereo not drawn)  serum total protein (mouse, serum; intraperitoneal, 180 mg/kg single dose): 4.3 g/dL
CC[C@H](C)[C@H](NC(=O)CNC(=O)[C@@H](NC(=O)[C@H](Cc1ccc(O)cc1)NC(=O)[C@@H](NC(=O)[C@H](CO)NC(=O)[C@@H](NC(=O)[C@H](C)NC(=O)[C@@H]1CCCN1C(=O)[C@@H](NC(=O)[C@H](Cc1ccccc1)NC(=O)[C@H](CCCCN)NC(=O)[C@H](CCC(=O)O)NC(=O)[C@H](Cc1ccc(O)cc1)NC(=O)[C@H](CC(C)C)NC(=O)[C@H](CC(=O)O)NC(=O)[C@H](CCCNC(=N)N)NC(=O)[C@H](CC(C)C)NC(=O)[C@H](CCCCN)NC(=O)[C@H](CCC(=O)O)NC(=O)[C@H](Cc1ccccc1)NC(=O)[C@@H](NC(=O)[C@H](CCC(=O)O)NC(=O)[C@H](CCCCN)NC(=O)[C@H](CC(C)C)NC(=O)[C@H](Cc1ccc(O)cc1)NC(=O)[C@@H](N)CC(=O)O)C(C)C)[C@@H](C)O)C(C)C)[C@@H](C)O)[C@@H](C)O)C(=O)N[C@@H](Cc1ccccc1)C(=O)N[C@H](C(=O)N[C@@H](CC(=O)O)C(=O)N[C@@H](CCC(N)=O)C(=O)N[C@H](C(=O)N[C@@H](CC(C)C)C(=O)N[C@@H](CO)C(=O)N[C@H](C(=O)N[C@@H](CC(C)C)C(=O)N[C@@H](CCCCN)C(=O)NCC(=O)N[C@@H](CCC(=O)O)C(=O)N[C@@H](CCC(=O)O)C(=O)O)C(C)C)C(C)C)[C@@H](C)O  distribution half-life (C57BL/6 mouse; intravenous, dose not given): 3 h
COc1ccc(C)cc1NC(=O)OC1CC2CCCC(C1)N2Cc1ccc(CC[18F])cc1 (stereo not drawn)  tracer uptake (mouse, bone; 1 h, tumour-bearing): 4.87 %ID/g
CCc1cc2c(cc1N1CCC(N3CCOCC3)CC1)C(C)(C)c1c(c3ccc(C#N)cc3n1CC[18F])C2=O  brain clearance time (PET; healthy nude mice, brain): ≤ 30 min
COc1cc(NC(=O)C(=O)c2c(C)n(Cc3ccc(Cl)cc3)c3ccc(C)cc23)ccn1  CL/F (cynomolgus monkey, female, plasma; oral, 10 mg/kg): 40.1 mL/min/kg and 30.5 mL/min/kg and 62.1 mL/min/kg and 43.5 mL/min/kg and 69.3 mL/min/kg
CC(C)C[C@@H](NC(=O)[C@@H](CCCNC(=N)N)NC(=O)[C@@H](Cc1c[nH]cn1)NC(=O)[C@@H](Cc1c[nH]c2ccccc12)NC(=O)[C@@H](Cc1c[nH]cn1)NC(=O)[C@@H](Cc1ccccc1)NC(=O)[C@H](NC(=O)[C@@H](Cc1ccc(O)cc1)NC(=O)CNC(=O)CNC(=O)CCOCCOCCOCCNC(=O)CN1CCN(CC(=O)O)CCN(CC(=O)O)CC1)[C@H](C)O)C(=O)N[C@H](CC(N)=O)C(=O)N1CCC[C@@H]1C(=O)O [gallium-68 labelled]  SUVmax (PET; human, right femur bone metastasis): 2.8 SUV
c1ccc(C2(CCNC3CCC4(SCCS4)c4ccccc43)CCOC3(CCCC3)C2)nc1 (stereo not drawn)  AUC(0-24 h) (dog; intravenous, 0.3 mg/kg): 0.302 µg·h/mL
CC=C(C)C(=O)OC1C2C3(C)CCC(OC4CC(OC)C(OC5OC(C)C(O)C(OC)C5O)C(C)O4)CC3CCC23OC32CCC(C(C)=O)C2(C)C1OC(C)=O (stereo not drawn)  Papp B→A (Caco-2; 10 µM): 9.12 ×10⁻⁶ cm/s
O=c1c(Br)c2oc3c(CN(Cc4ccccn4)Cc4ccccn4)c(O)ccc3nc-2c2ccccc12  pKa (fluorescence; first pKa): 5.08
CC(C)[C@H]1NC(=O)C[C@H]2/C=C/CCSSC[C@@H](NC1=O)C(=O)N[C@H](Cc1cccc3ccccc13)C(=O)NCC(=O)O2  AUC (nude mouse, blood; intraperitoneal, 4 mg/kg): 0.015 µg·h/mL
CSCC[C@@H]1NC(=O)CCCC(=O)NCCCC[C@@H](C(N)=O)NC(=O)[C@H](CO)NC(=O)[C@H]([C@@H](C)O)NC(=O)[C@H](CO)NC(=O)[C@H](CO)NC(=O)[C@H](CC(C)C)NC(=O)[C@H](Cc2ccccc2)NC(=O)[C@H](CCC(=O)O)NC(=O)[C@H](Cc2ccccc2)NC(=O)[C@H](Cc2c[nH]c3ccccc23)NC(=O)[C@H]([C@@H](C)O)NC1=O  serum half-life (human serum; baseline: cyclic over linear peptide): 130 fold
C/C=C/C=C/C/C=C/CCCCCCCc1cccc(O)c1O  tissue concentration (female Kunming mice, tumour-bearing, spleen; intravenous, 10 mg/kg, 0.5 h): 11600 ± 1450 ng/g
CC(C)[C@H](NC(=O)CNC(=O)[C@H](CCC(N)=O)NC(=O)[C@H](C)N)C(=O)O  subjects with moderate adverse events (human; intravenous infusion, 15 mg/kg/h, 2 h infusion): 0%
CC(C)C[C@H](NC(=O)[C@H](CCCCN)NC(=O)[C@H](CCC(=O)O)NC(=O)[C@H](C)NC(=O)[C@@H](NC(=O)[C@H](CCCCN)NC(=O)[C@H](CC(=O)O)NC(=O)[C@H](Cc1ccc(O)cc1)NC(=O)[C@H](Cc1ccccc1)NC(=O)[C@H](C)NC(=O)[C@H](CCCCN)NC(=O)[C@H](CC(C)C)NC(=O)[C@H](Cc1c[nH]c2ccccc12)NC(=O)[C@@H](N)CC(=O)O)C(C)C)C(=O)N[C@@H](CCCCN)C(=O)N[C@@H](CCC(=O)O)C(=O)N[C@@H](C)C(=O)N[C@@H](Cc1ccccc1)C(=O)N1CCC[C@H]1C(=O)N[C@@H](CC(=O)O)C(=O)N[C@@H](Cc1c[nH]c2ccccc12)C(=O)N[C@@H](C)C(=O)N[C@@H](CCCCN)C(=O)N[C@@H](C)C(=O)N[C@@H](C)C(=O)N[C@@H](Cc1ccc(O)cc1)C(=O)N[C@@H](CC(=O)O)C(=O)N[C@@H](CCCCN)C(=O)N[C@@H](C)C(=O)N[C@@H](C)C(=O)N[C@@H](CCC(=O)O)C(=O)N[C@@H](CCCCN)C(=O)N[C@@H](C)C(=O)N[C@@H](CCCCN)C(=O)N[C@@H](CCC(=O)O)C(=O)N[C@@H](C)C(=O)N[C@@H](C)C(=O)O  AUC(0-last) (cynomolgus monkey male, plasma; intravenous infusion, 75 mg/kg, day 1, 30 min infusion): 7470 µg·h/mL
O=C([O-])C[N+]12CC(=O)[O][Re-2]1[O]P(=O)([O-])C2.[C-]#[O+].[C-]#[O+].[C-]#[O+] (stereo not drawn)  isomer fraction at equilibrium (HPLC; aqueous solution; 1 d, pH 12, room temperature): 59%
COC(=O)C[C@](O)(CCCC(C)(C)OC(C)=O)C(=O)O[C@@H]1C(OC)=C[C@]23CCCN2CCc2cc4c(cc2[C@H]13)OCO4  tissue concentration (CD1 mouse, pancreas; subcutaneous, 1 mg/kg, 24 h, below quantification limit 1.00 ng/mL): not detected
CCNc1cc2[o+]c3cc(NCC)c(C)cc3c(-c3ccccc3C(=O)OCCOCC[18F])c2cc1C  tissue uptake (rat, gut; 60 min): 1.39 ± 0.58 %ID/g
CC[C@H](C)[C@H](NC(=O)[C@H](CCCCN)NC(=O)CNC(=O)[C@H](CC(C)C)NC(=O)[C@@H](NC(=O)[C@H](C)NC(=O)[C@H](CCCCN)NC(=O)CNC(=O)[C@H](C)NC(=O)CNC(=O)[C@H](CCCCN)NC(=O)[C@H](CCSC)NC(=O)[C@H](CCCCN)NC(=O)[C@@H](NC(=O)[C@H](Cc1c[nH]c2ccccc12)NC(=O)[C@H](CC(C)C)NC(=O)[C@H](CCCCN)NC(=O)[C@H](CCCCN)NC(=O)[C@H](CC(C)C)NC(=O)[C@@H](N)CC(C)C)[C@@H](C)O)C(C)C)C(=O)N[C@@H](CCCCN)C(=O)NCC(=O)N[C@@H](CC(C)C)C(=O)N[C@@H](CC(C)C)C(=O)O  Stern-Volmer constant (acrylamide quenching; PC:cholesterol vesicles, 250 µM lipid; 2 µM, together with: acrylamide): 1.77 ± 0.37 M⁻¹
O=C(O)CCC(NP(=O)(O)OCCC[C@@H](NC(=O)CCC(NC(=O)CCCCCNC(=O)c1ccc([18F])cc1)C(=O)O)C(=O)O)C(=O)O (stereo partly drawn)  tumour to blood ratio (radioactivity; mouse, CWR22Rv1 xenograft; 1 h; baseline: tumour over blood): 20
CC[C@H](C)[C@H](NC(=O)[C@H](CCCCN)NC(=O)[C@H](Cc1ccccc1)NC(=O)[C@H]1CCC[C@@H]1NC(=O)CN)C(=O)N[C@@H](C)CC(=O)N[C@@H](CCCCN)C(=O)N[C@@H](CCCCN)C(=O)N[C@H]1CCC[C@@H]1C(=O)N[C@H](C(=O)N[C@@H](CCCCN)C(=O)N[C@@H](CO)C(=O)N[C@H](CC(N)=O)Cc1ccccc1)C(C)C  helical rigidity (circular dichroism; trifluoroethanol in water; baseline: 15% TFE over 100% TFE): 25 ± 3%
CN[C@](C)(C[18F])C(=O)O  tissue uptake (SCID mouse SK-OV-3 xenograft, brain; 30 min, post injection): 0.3 ± 0.1 %ID/g
COc1cc2ccnc(Cc3ccc(O[11CH3])c(OC)c3)c2cc1OC  brain uptake (Sprague-Dawley rat, striatum; i.v., 30 min): 0.051 %ID/g
CSCC[C@H](NC(=O)CNC(=O)[C@H](CC(=O)O)NC(=O)[C@@H](NC(=O)[C@@H](NC(=O)[C@@H](NC(=O)CNC(=O)[C@H](CCC(N)=O)NC(=O)[C@H](CCSC)NC(=O)[C@H](CC(=O)O)NC(=O)[C@H](C)NC(=O)[C@H](C)NC(=O)[C@@H](NC(=O)[C@H](CO)NC(=O)[C@@H](N)CC(C)C)[C@@H](C)O)C(C)C)C(C)C)[C@@H](C)O)C(=O)N[C@@H](C)C(=O)N[C@@H](CO)C(=O)NCC(=O)N[C@@H](CC(C)C)C(=O)N[C@@H](CC(=O)O)C(=O)N[C@@H](CCCCN)C(=O)N[C@@H](CC(=O)O)C(=O)N[C@@H](Cc1ccc(O)cc1)C(=O)N[C@@H](CC(C)C)C(=O)N[C@@H](CCCCN)C(=O)N1CCC[C@H]1C(=O)N[C@@H](CC(=O)O)C(=O)N[C@@H](CC(=O)O)C(=O)O  Cmax (human, serum; intravenous, 3.33 mg/kg, patients, infusion): 9800 ng/mL
CC(=CCC(O)C(C)=Cc1csc(C)n1)CC=CC(C)C(O)C(C)C(=O)C(C)(C)C(O)CC(=O)O (stereo not drawn)  AUC ratio (human, plasma; intravenous infusion, 36 mg/m2 KOS-1584, 3 h infusion, cycle 1; baseline: metabolite over KOS-1584): 9.76 ± 6.76%
CC[C@H](C)C(=O)N1CCC(NC(=O)Nc2ccc(OC(F)(F)F)c(F)c2)CC1  subjects with any AE (healthy volunteers; oral, 8 mg single dose, 14 (unit not given)): 50%
CC(C)C[C@H](NC(=O)[C@H](CCC1CCCCC1)NC(=O)[C@@H]1CCCN1C(=O)c1ccc(F)cc1)C(=O)NC(C)(C)C(=O)N[C@@H](CC(C)C)C(=O)N[C@@H](CC(C)C)C(=O)NC(C)(C)C(=O)NC(C)(C)C(=O)NCCC(=O)NCCN(C)CC(F)F  pKa (potentiometric titration; methanol-water 1:4, NaCl 150 mM; terminal amine): < 3.5
O=c1cc(-c2ccccc2)oc2c(Br)c(O)c(O)c(O)c12  AUC(0-inf) (C57BL/6 mouse, plasma; oral, 250 mg/kg, single dose): 54.5 µg·h/mL
CSCC[C@@H]1NC(=O)[C@@H]2CSSC[C@H](NC(=O)[C@H](CO)NC(=O)[C@H](C)N)C(=O)N[C@@H](CCCNC(=N)N)C(=O)N[C@@H]([C@@H](C)O)C(=O)N3CCC[C@H]3C(=O)N[C@@H](CCCCN)C(=O)N[C@@H](CC(=O)O)C(=O)N[C@H]3CSSC[C@H](NC(=O)[C@H](CCCCN)NC(=O)[C@H](CCCNC(=N)N)NC(=O)[C@H](CC(N)=O)NC1=O)C(=O)N[C@@H](CCCCN)C(=O)N[C@H]1CSSC[C@H](NC(=O)[C@@H]4CCCN4C(=O)[C@H](CC(=O)O)NC(=O)[C@H](C)NC3=O)C(=O)N[C@@H](C)C(=O)N[C@@H](CCCCN)C(=O)N[C@@H](CCC(=O)O)C(=O)N[C@@H]([C@@H](C)O)C(=O)NCC(=O)N[C@@H](CSSC[C@@H](C(N)=O)NC(=O)[C@H](CCCNC(=N)N)NC(=O)[C@H](CC(N)=O)NC1=O)C(=O)N1CCC[C@H]1C(=O)N[C@@H](Cc1ccc(O)cc1)C(=O)NCC(=O)N[C@@H](CCCCN)C(=O)N2  total protein (DA rat, pristane-induced arthritis, serum; subcutaneous, 0.1 mg/kg single dose at onset, 21 days): 4.92 g/dL
Cc1nc(-c2ccc(Cl)cc2)nc2sc3c(=O)n(CCN4CCOCC4)cnc3c12  permeability (Pe) (porcine brain lipid; 100 µg/mL, 18 h, pH 7.4): 3.74 ± 0.136 ×10⁻⁶ cm/s
CCC[C@@H]1O[C@@H]2C[C@H]3[C@@H]4C[C@H](F)C5=CC(=O)CC[C@]5(C)[C@@]4(F)[C@@H](O)C[C@]3(C)[C@]2(C(=O)CO)O1  AUC (CD1 mice, plasma; subcutaneous, 0.2 mg/kg): 0.046 µM·h

Excerpt of the above:
CC(=CCC(O)C(C)=Cc1csc(C)n1)CC=CC(C)C(O)C(C)C(=O)C(C)(C)C(O)CC(=O)O (stereo not drawn)  AUC ratio (human, plasma; intravenous infusion, 36 mg/m2 KOS-1584, 3 h infusion, cycle 1; baseline: metabolite over KOS-1584): 9.76 ± 6.76%
CC=C(C)C(=O)OC1C2C3(C)CCC(OC4CC(OC)C(OC5OC(C)C(O)C(OC)C5O)C(C)O4)CC3CCC23OC32CCC(C(C)=O)C2(C)C1OC(C)=O (stereo not drawn)  Papp B→A (Caco-2; 10 µM): 9.12 ×10⁻⁶ cm/s
